{"data": "Published values pooled from the literature", "note": "Parts stem from different laboratories: compare values within a part only. Positions count from the first letter of the parent shown."}
{"data": "Series 1", "target": "RNA binding protein fox-1 homolog 2, RRM domain, GST-SBP tag (RBFOX2, Homo sapiens, UniProt O43251-10, residues 100-194)", "method": "RNA Bind-n-Seq", "molecule type": "RNA", "medium": "in vitro", "concentration": "365 nM", "notes": "natural RNA segment, single round, ends assumed", "relative to": "no-protein control", "direction": "higher = stronger binding", "constant ends, left off below": "GGGAGUUCUACAGUCCGACGAUC … UGGAAUUCUCGGGUGCCAA", "Target sequence (chain)": "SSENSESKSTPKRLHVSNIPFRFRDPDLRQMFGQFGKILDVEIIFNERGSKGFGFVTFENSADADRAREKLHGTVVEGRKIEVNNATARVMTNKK"}
{"Oligonucleotide": "GAAGUCAGUUUGUGAAUGUUGUCUGUUAAGUAUUACAAAAUAACAAGGAAAAAAAAACAAAAUAACAAGGGUUAGAAGUUCAAAGUAAAAAACAGACAUCUUUGAUUUCU", "RBNS enrichment (R)": 1.6}
{"Oligonucleotide": "GACGGGGCCAGCUGGACACACGGUGAGAUUUUCUCGUAUGUAAAUAAAAGGCAUUUUGGUAAACGUGGAGGCUGAGAUGUCUCUGUGCCUGCCCUGAGGUUGGAUGUAGC", "RBNS enrichment (R)": 0.42}
{"Oligonucleotide": "GCUAGAUCACACUGAUUCUCCUGCCGUGGAUAUGAGUUAAAACCAAGUGGUAAAGCACUUGGAUUCACCCCCAAUGACCACUCAGCACAAAAUGCAGAAAUUCCUUCUGA", "RBNS enrichment (R)": 0.15}
{"Oligonucleotide": "AAAACACCUGUUGACCUGAGAGAAGUAAAUUCCAGAAGGGAACCAAGAACUCUUCCCUUCCCUGGUGAGUAUUUCCAUUAUUCCGUUAAGGUUUAAUAUGCAUUCAGAUU", "RBNS enrichment (R)": 0.562}
{"Oligonucleotide": "AGUAAUACAUUAUAGUGAAUUCAUGAUCAAGGUUUCCUUAAAUUUAGCAUUGCAUUUCAGUACUGACUGUGUAAGCUAAAUUGCUGAUCCAAAAUAAAAACCCAGACUAG", "RBNS enrichment (R)": 0.295}
{"Oligonucleotide": "UUGACGGGCACUUGGAGGAGGAGCUGACUGUGUGUGUACCAGCUUCACUGGGAUGUGUUUCCCCAGUCAAGGAACAGGGGAUCUUCAGAGUCAUGAAUGUUUUCUUGCCA", "RBNS enrichment (R)": 0.799}
{"Oligonucleotide": "UUGGGGUACCUGCCUCUCUCUCUCCUGUGGUGUCCCUUCCCUCUCCCAUGUGCUCGGUGUUCAGUGGUGUAUAUUUCUUCUCCCAGACAUGGGGCACACGCCCCAAGGGA", "RBNS enrichment (R)": 0.325}
{"Oligonucleotide": "UAAAGGUUUUGGAGCCCACCUAGGGGUAGGUGCAGCUUUAUUGGCUUUUCUGUGGAUUCUCUCAGUGGACCCACACCAUCUCUAUGUCUCUCCACUCUCCUGCCUUCAGC", "RBNS enrichment (R)": 0.339}
{"data": "Series 2", "target": "Histone acetyltransferase KAT6A, winged helix 1, GST fusion (KAT6A, Homo sapiens, UniProt Q92794, residues 1-85)", "method": "protein binding microarray", "molecule type": "double-stranded DNA, one strand shown", "medium": "in vitro", "concentration": "not given", "notes": "8-mer, flanks averaged, mean of 2 arrays, mostly near background", "relative to": "not given", "direction": "higher = stronger binding", "Residues (chain)": "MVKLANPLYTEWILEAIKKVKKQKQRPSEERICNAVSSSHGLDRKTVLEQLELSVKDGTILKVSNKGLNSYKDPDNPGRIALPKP"}
{"Oligonucleotide": "ACTAGCTC", "E-score": -0.089}
{"Oligonucleotide": "CAAACTCC", "E-score": 0.0242}
{"Oligonucleotide": "GCATTCCC", "E-score": 0.0603}
{"Oligonucleotide": "CATTGGAG", "E-score": -0.0275}
{"Oligonucleotide": "ACCACGGA", "E-score": 0.179}
{"Oligonucleotide": "CAGGTCCC", "E-score": 0.202}
{"Oligonucleotide": "ACAATCAC", "E-score": -0.112}
{"Oligonucleotide": "CCCGAACC", "E-score": 0.0867}
{"Oligonucleotide": "GCTGCCCC", "E-score": 0.18}
{"Oligonucleotide": "AACGACCG", "E-score": -0.0605}
{"Oligonucleotide": "CGAACTAA", "E-score": -0.191}
{"Oligonucleotide": "AGCGCAGC", "E-score": 0.313}
{"Oligonucleotide": "CCATGGAG", "E-score": -0.092}
{"Oligonucleotide": "CACGCCCA", "E-score": -0.1}
{"Oligonucleotide": "CATTAGTA", "E-score": -0.147}
{"Oligonucleotide": "AAAAACTG", "E-score": -0.228}
{"Oligonucleotide": "CGGCTCCC", "E-score": 0.303}
{"Oligonucleotide": "CGTACCAA", "E-score": -0.0258}
{"Oligonucleotide": "CTGTGTCA", "E-score": -0.0824}
{"Oligonucleotide": "AATTTATA", "E-score": -0.143}
{"Oligonucleotide": "CTACCCCA", "E-score": -0.167}
{"Oligonucleotide": "GTGCGTGA", "E-score": 0.122}
{"Oligonucleotide": "GGGGTTCA", "E-score": 0.0506}
{"Oligonucleotide": "AGCTTCAA", "E-score": -0.207}
{"Oligonucleotide": "TCCTTCGA", "E-score": -0.0649}
{"data": "Series 3", "target": "CCNA2, cyclin fold, Cln2 fusion (human)", "method": "yeast growth competition, sequencing", "medium": "yeast", "notes": "strong parent motif", "relative to": "not given", "direction": "higher = stronger binding", "starting sequence": "CDC6 docking peptide (human); TLKGRRLVFDNQL; partner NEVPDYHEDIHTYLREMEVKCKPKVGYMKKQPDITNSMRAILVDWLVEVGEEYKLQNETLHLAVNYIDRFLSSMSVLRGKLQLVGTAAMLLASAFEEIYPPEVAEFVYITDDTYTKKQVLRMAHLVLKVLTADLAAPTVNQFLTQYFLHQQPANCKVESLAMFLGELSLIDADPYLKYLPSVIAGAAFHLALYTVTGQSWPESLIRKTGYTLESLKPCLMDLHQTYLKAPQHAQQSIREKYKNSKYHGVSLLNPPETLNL"}
{"Change": "TLKGRRLVFDGQL [N11G]", "normalised enrichment score": 3.46}
{"Change": "TLKGRRLVFRNQL [D10R]", "normalised enrichment score": 1.67}
{"Change": "TLIGRRLVFDNQL [K3I]", "normalised enrichment score": 2.55}
{"Change": "TLKGRRLVGDNQL [F9G]", "normalised enrichment score": 0.78}
{"Change": "TLKGRRLVFDEQL [N11E]", "normalised enrichment score": 3.52}
{"Change": "TLKGRKLVFDNQL [R6K]", "normalised enrichment score": 2.66}
{"Change": "TLKGRRLVADNQL [F9A]", "normalised enrichment score": 0.372}
{"Change": "TLKGERLVFDNQL [R5E]", "normalised enrichment score": -0.343}
{"Change": "TLNGRRLVFDNQL [K3N]", "normalised enrichment score": 1.16}
{"Change": "TLKGDRLVFDNQL [R5D]", "normalised enrichment score": -1.18}
{"Change": "TLKGRRLKFDNQL [V8K]", "normalised enrichment score": 2.52}
{"Change": "TLKGRRLVEDNQL [F9E]", "normalised enrichment score": 0.54}
{"Change": "TLKGFRLVFDNQL [R5F]", "normalised enrichment score": 0.455}
{"Change": "TLAGRRLVFDNQL [K3A]", "normalised enrichment score": 2.27}
{"Change": "TLKGRRLVFFNQL [D10F]", "normalised enrichment score": 2.32}
{"Change": "TLGGRRLVFDNQL [K3G]", "normalised enrichment score": 0.84}
{"data": "Series 4", "target": "Sal-like protein 4, full length isoform A (SALL4, Homo sapiens, UniProt Q9UJQ4, residues 1-1053)", "method": "universal PBM", "molecule type": "double-stranded DNA, one strand shown", "medium": "in vitro", "concentration": "600 nM", "notes": "8-mer, flanks averaged, mean of replicates", "direction": "higher = stronger binding", "chain of UniProt Q9UJQ4 (whole entry, looked up)": "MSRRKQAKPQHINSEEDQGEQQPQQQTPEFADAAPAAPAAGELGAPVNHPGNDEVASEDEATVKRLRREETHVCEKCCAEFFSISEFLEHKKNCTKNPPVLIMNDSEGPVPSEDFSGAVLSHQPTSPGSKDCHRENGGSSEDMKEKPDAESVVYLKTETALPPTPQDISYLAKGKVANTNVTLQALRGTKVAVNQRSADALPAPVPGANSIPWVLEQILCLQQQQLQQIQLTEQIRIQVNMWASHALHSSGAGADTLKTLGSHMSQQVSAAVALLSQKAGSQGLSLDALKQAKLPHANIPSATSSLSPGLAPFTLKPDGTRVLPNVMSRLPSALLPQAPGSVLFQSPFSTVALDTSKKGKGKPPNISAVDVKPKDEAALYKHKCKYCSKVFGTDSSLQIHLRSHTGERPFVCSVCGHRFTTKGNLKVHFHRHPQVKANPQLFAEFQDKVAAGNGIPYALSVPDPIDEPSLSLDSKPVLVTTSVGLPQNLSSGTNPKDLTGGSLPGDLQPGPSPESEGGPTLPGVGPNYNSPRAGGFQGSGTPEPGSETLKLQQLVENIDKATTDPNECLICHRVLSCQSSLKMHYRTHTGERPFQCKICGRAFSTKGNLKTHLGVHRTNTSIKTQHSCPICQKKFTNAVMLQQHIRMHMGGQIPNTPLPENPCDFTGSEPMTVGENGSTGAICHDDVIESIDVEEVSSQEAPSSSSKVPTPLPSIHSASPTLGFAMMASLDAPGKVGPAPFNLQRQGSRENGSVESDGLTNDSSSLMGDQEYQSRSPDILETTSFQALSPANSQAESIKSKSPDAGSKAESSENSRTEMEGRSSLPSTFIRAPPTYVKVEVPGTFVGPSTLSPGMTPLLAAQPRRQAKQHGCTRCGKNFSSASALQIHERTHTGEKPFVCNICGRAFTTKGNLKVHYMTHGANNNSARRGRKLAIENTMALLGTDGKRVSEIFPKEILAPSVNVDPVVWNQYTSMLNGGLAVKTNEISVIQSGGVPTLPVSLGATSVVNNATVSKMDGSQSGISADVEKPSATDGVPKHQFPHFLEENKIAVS"}
{"Oligonucleotide": "CCGCAGAC", "E-score": -0.296}
{"Oligonucleotide": "CCTATCAA", "E-score": 0.0802}
{"Oligonucleotide": "ACGTGTCT", "E-score": 0.0971}
{"Oligonucleotide": "GTCCACTA", "E-score": 0.0192}
{"Oligonucleotide": "GTGAAGAA", "E-score": 0.0855}
{"Oligonucleotide": "AGGTCATA", "E-score": 0.182}
{"Oligonucleotide": "ATGTGGCC", "E-score": -0.0942}
{"Oligonucleotide": "ACAATGCT", "E-score": 0.0362}
{"Oligonucleotide": "CCCAAACG", "E-score": -0.104}
{"Oligonucleotide": "ATATTCGC", "E-score": 0.34}
{"Oligonucleotide": "AGCTAGCT", "E-score": -0.0169}
{"Oligonucleotide": "ATGGAAGC", "E-score": -0.0183}
{"Oligonucleotide": "ACGCCTAC", "E-score": -0.262}
{"Oligonucleotide": "AGCTCGTC", "E-score": -0.252}
{"Oligonucleotide": "CACTCCAA", "E-score": -0.0919}
{"Oligonucleotide": "AACGGATT", "E-score": 0.221}
{"Oligonucleotide": "CTATATTC", "E-score": 0.282}
{"Oligonucleotide": "ACTCGTAA", "E-score": 0.188}
{"Oligonucleotide": "ACAGATTC", "E-score": 0.172}
{"Oligonucleotide": "CCCCCCTA", "E-score": -0.261}
{"Oligonucleotide": "ACTACATC", "E-score": 0.0948}
{"Oligonucleotide": "TCATCCAA", "E-score": 0.129}
{"Oligonucleotide": "AAAGACGT", "E-score": 0.123}
{"Oligonucleotide": "GACACTGC", "E-score": -0.225}
{"Oligonucleotide": "AGACCGAG", "E-score": -0.213}
{"data": "Series 5", "target": "Interferon regulatory factor 3, full length, phosphomimetic (IRF3, Homo sapiens, UniProt Q14653, residues 1-427, S386D/S396D/S398D/S402D/T404D/S405D)", "method": "protein-binding microarray", "molecule type": "double-stranded DNA, one strand shown", "medium": "in vitro", "concentration": "2540 nM top", "notes": "60-bp whole probe", "with": "salmon DNA 0.4 mg/ml", "relative to": "random background probes", "direction": "higher = stronger binding", "constant ends, left off below": "GCCTAGCAC … GTCTTGATTCGCTTGACGCTGCTG", "Residues (chain)": "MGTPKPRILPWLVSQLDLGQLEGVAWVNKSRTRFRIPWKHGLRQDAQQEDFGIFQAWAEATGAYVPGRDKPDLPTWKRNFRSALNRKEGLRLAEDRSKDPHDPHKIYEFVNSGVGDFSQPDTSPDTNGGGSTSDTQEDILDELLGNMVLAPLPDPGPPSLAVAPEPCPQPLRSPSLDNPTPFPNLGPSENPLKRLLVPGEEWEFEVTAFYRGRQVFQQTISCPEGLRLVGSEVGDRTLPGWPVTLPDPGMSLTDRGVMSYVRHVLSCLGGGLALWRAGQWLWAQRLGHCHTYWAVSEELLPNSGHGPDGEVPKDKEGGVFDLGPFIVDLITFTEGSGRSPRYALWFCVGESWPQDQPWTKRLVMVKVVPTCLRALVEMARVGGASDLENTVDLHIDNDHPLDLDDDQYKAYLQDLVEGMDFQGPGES"}
{"Oligonucleotide": "GACGGTTTCCTTATCCTGAGGTGCTAG", "fitted relative affinity [z-score]": 8.09}
{"Oligonucleotide": "TTACGTCTCGGTCTCGGTTAGTGCTAG", "fitted relative affinity [z-score]": 1.44}
{"Oligonucleotide": "TACTGCTGGAGCTCAAGAGCGTGCTAG", "fitted relative affinity [z-score]": -1.1}
{"Oligonucleotide": "GACGGTATCGACACTGGAGACGTGCTA", "fitted relative affinity [z-score]": 0.591}
{"Oligonucleotide": "TTAGGTATCTGTATCGGTTAGTGCTAG", "fitted relative affinity [z-score]": 2.93}
{"Oligonucleotide": "TTAGGTTTCGACCCTGGGTTAGTGCTA", "fitted relative affinity [z-score]": 1.94}
{"Oligonucleotide": "TTAGAGTTCGGGTATCGATTAGTGCTA", "fitted relative affinity [z-score]": 0.0041}
{"Oligonucleotide": "TTAGGTATCCTACTGGTTTAGTGCTAG", "fitted relative affinity [z-score]": 2.62}
{"Oligonucleotide": "GACGTTTTCGACACTGGGGACGTGCTA", "fitted relative affinity [z-score]": 1.57}
{"Oligonucleotide": "GACGGTCACGGTATCGGGACGTGCTAG", "fitted relative affinity [z-score]": 0.507}
{"Oligonucleotide": "TTAGGTATCGACTATTGGTTAGTGCTA", "fitted relative affinity [z-score]": 0.0199}
{"Oligonucleotide": "TCATGTTTCTCAACCATACTGTGCTAG", "fitted relative affinity [z-score]": 1.39}
{"Oligonucleotide": "TTAGATTGCGGGACTGGATTAGTGCTA", "fitted relative affinity [z-score]": -0.326}
{"Oligonucleotide": "TCATTTGTCATCTATAATACTGTGCTA", "fitted relative affinity [z-score]": 1.16}
{"Oligonucleotide": "TCATTTTTCTACTTCTGACTGTGCTAG", "fitted relative affinity [z-score]": 2.17}
{"Oligonucleotide": "GACGGTTTCGGGACAGGGGACGTGCTA", "fitted relative affinity [z-score]": 4.35}
{"Oligonucleotide": "TCAGGTTTGTACACCGCACTGTGCTAG", "fitted relative affinity [z-score]": 0.000352}
{"Oligonucleotide": "TTAGGGTTCCTTTTCCTTTAGTGCTAG", "fitted relative affinity [z-score]": 6.71}
